Assay results pooled from the literature.
KIT V559D: Mast/stem cell growth factor receptor Kit (KIT, Homo sapiens, UniProt P10721, V559D)
KIT: Mast/stem cell growth factor receptor Kit (KIT, Homo sapiens, UniProt P10721)
KIT D816V: Mast/stem cell growth factor receptor Kit (KIT, Homo sapiens, UniProt P10721, D816V)
KIT autoinhibited: Mast/stem cell growth factor receptor Kit, autoinhibited (KIT, Homo sapiens, UniProt P10721)

`Cc1cnc2nc1Nc1cccc(c1)COC/C=C/COCc1cc(ccc1OCCN1CCOCC1)N2` gave a remaining binding of 19% (KIT V559D; binding; 0.1 µM).
The remaining binding of `C=C1C[C@]2(C(=O)OC)C=C(C(=O)Nc3cccc(C(=O)Nc4ccc(Nc5nccc(-c6cccnc6)n5)c(C)c4)c3)C(=O)[C@H]1C2` is reported as 49% (KIT; binding, competition with immobilised ligand; 1 µM).
The remaining binding of `Cc1ccc(-c2c(/C=C(\C#N)C(=O)NC(C)C)n(CCCO)c3ncnc(N)c23)cc1` is reported as 34% (KIT; cell-free assay, competition with immobilised ligand; 1 µM).
With `CNc1ccc(-c2n[nH]c3c2CCN(C(=O)c2ccccc2)C3)cc1` the remaining binding was 3.5% (KIT; cell-free assay, competition with immobilised ligand; 10 µM).
For `C=CC(=O)N1CCc2ccc(-n3c(=O)ccc4cnc5ccc(-c6cnn(C)c6)cc5c43)cc21`, the remaining binding was 68% (KIT V559D; KINOMEscan; 1 µM; relative to: DMSO control).
With `CNS(=O)(=O)Nc1nccc(Cc2c(C)c3ccc(Oc4ncccc4F)cc3oc2=O)c1F` the remaining binding was 98% (KIT D816V; binding, competition with immobilised ligand; 10 µM).
`Nc1ncc2c(n1)-c1c([nH]c3ccc(C4=CCOCC4)cc13)CCC2` has a remaining binding of 92% (KIT V559D; binding, competition with immobilised ligand; 1 µM).
With `Cc1ccc(C(=O)Nc2cccc(C(F)(F)F)c2)cc1Nc1cncc(C(N)=O)c1` the remaining binding was 18% (KIT (Homo sapiens, UniProt P10721, V559D/V654A); binding, competition with immobilised ligand; 1 µM).
`C=CC(=O)N1CCCC(n2c(=O)c3ncccc3n(Cc3ccc(Oc4ccccc4)cc3)c2=O)C1` (centres unmarked) has a remaining binding of 64% (KIT autoinhibited; cell-free assay, competition with immobilised ligand; 1 µM).
For `CNC(=O)C1CCN(c2cc(C)c(F)cc2NC(=O)c2ccc(-c3cc(O)ccc3C)c(C)c2)CC1`, the remaining binding was 65% (KIT autoinhibited; binding, competition with immobilised ligand; 1 µM).
For `CC(=O)N1c2ccc(-c3ccc(CNC(=O)c4cn5cc(-c6cnc(N)nc6)nc(N6CCOCC6)c5n4)cc3)cc2CC[C@@H]1C`, the remaining binding was 82% (KIT; KINOMEscan; 10 µM).
`CCN1CCN(Cc2ccc(NC(=O)c3ccc(C)c(NC(=O)c4cncc(-c5cccs5)c4)c3)cc2C(F)(F)F)CC1` gave a remaining binding of 11% (KIT D816V; binding, competition with immobilised ligand; 1 µM).
`CCN1CCN(Cc2ccc(C(=O)Nc3ccc(C)c(NCc4cnc5[nH]ccc5c4OC)c3)cc2C(F)(F)F)CC1` has a remaining binding of 0.15% (KIT; binding, competition with immobilised ligand; 1 µM).
The remaining binding of `CN1CCN(Cc2ccc(NC(=O)c3cccc(C#Cc4cnc(N)c5ncccc45)c3)cc2C(F)(F)F)CC1` is reported as 1.6% (KIT (Homo sapiens, UniProt P10721, T670I/V559D); cell-free assay, competition with immobilised ligand; 50 nM).
The remaining binding of `CNC1C[S+]2CC[S+]3CC[S+](C1)[Ru-4]321([N]=C=S)[n]2c3ccc(OC)cc3c3c4c(c5cc(F)c[n+]1c5c32)C(=O)NC4=O` (centres unmarked) is reported as 95% (KIT autoinhibited; KinomeScan; 0.1 µM; relative to: untreated).
For `CC(C)=CC1OC(C)(C)C2C=C3C(=O)C(Cl)=CC(O)C3C3C(O)C4OC4C(=O)C132` (centres unmarked), the remaining binding was 87% (KIT; cell-free assay, competition with immobilised ligand; 10 µM).
For `COc1c(Cl)cccc1Nc1c(-c2ccncc2C#C[C@@]2(C)CCCN2C(=O)/C=C/CN(C)C)[nH]c2c1C(=O)NCC2`, the remaining binding was 83% (KIT (Homo sapiens, UniProt P10721, D816H); binding, competition with immobilised ligand; 3 µM).
